Measured values from different studies.
Every numbered part comes from another study and shows a few of its results, in no order. Several values in a cell are separate wells, animals, samples, runs or records.
UniProt Q9UHD2, sequence (whole entry, looked up): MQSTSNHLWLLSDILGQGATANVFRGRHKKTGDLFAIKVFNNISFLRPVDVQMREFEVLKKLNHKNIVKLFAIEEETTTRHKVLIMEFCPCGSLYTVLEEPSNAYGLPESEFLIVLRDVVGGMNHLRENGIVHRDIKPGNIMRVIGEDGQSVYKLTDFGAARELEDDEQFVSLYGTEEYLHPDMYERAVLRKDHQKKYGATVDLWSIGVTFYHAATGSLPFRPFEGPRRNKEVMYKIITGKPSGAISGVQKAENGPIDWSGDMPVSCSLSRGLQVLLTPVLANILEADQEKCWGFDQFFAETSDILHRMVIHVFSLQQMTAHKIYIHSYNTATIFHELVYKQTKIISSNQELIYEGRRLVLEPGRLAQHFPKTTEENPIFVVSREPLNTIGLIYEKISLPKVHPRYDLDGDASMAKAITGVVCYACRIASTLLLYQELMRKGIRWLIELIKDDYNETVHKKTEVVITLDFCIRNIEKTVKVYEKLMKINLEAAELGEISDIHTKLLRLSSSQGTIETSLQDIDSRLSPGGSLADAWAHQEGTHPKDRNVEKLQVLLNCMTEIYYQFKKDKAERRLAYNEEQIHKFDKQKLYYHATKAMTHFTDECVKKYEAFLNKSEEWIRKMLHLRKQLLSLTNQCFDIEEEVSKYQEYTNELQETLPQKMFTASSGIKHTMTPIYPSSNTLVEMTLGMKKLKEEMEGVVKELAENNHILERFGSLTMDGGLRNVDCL
UniProt Q6P3R8, sequence (whole entry, looked up): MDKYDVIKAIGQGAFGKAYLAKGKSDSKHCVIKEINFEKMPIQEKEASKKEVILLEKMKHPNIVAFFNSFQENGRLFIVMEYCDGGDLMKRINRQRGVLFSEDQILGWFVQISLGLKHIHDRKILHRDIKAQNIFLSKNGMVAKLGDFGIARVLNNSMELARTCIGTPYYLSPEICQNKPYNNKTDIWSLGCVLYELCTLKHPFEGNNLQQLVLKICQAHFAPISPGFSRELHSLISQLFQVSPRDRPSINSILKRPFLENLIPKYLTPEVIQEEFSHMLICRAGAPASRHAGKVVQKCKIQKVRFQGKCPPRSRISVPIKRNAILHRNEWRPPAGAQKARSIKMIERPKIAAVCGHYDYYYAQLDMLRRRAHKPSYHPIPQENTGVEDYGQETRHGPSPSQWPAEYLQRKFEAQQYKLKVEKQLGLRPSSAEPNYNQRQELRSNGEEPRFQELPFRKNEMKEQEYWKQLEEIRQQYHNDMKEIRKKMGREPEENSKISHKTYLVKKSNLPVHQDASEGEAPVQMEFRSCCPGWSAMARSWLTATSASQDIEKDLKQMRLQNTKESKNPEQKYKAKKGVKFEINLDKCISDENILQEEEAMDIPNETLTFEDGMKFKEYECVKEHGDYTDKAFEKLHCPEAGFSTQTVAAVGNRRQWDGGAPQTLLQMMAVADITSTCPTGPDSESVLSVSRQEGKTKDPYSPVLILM
UniProt Q15349, sequence (whole entry, looked up): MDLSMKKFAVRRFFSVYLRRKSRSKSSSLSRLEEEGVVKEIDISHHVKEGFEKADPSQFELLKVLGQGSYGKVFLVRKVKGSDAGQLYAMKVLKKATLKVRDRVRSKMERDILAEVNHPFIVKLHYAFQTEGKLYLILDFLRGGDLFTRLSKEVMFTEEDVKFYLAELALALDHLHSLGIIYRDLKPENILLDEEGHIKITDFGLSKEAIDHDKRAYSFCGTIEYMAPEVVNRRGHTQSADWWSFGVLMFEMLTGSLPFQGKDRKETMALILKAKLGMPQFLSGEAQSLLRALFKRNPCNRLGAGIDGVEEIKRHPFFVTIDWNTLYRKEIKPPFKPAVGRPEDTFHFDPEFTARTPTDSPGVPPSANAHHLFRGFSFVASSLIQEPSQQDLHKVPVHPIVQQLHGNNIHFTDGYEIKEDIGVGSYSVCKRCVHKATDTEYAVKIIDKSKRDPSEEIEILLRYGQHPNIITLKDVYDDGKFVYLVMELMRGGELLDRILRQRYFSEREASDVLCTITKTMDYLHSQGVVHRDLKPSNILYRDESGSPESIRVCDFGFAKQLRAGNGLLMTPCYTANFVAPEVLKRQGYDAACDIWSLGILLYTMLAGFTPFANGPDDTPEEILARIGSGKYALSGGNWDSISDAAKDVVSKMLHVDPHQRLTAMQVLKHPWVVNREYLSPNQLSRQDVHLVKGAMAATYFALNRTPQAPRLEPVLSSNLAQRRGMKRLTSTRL
UniProt P08631, sequence (whole entry, looked up): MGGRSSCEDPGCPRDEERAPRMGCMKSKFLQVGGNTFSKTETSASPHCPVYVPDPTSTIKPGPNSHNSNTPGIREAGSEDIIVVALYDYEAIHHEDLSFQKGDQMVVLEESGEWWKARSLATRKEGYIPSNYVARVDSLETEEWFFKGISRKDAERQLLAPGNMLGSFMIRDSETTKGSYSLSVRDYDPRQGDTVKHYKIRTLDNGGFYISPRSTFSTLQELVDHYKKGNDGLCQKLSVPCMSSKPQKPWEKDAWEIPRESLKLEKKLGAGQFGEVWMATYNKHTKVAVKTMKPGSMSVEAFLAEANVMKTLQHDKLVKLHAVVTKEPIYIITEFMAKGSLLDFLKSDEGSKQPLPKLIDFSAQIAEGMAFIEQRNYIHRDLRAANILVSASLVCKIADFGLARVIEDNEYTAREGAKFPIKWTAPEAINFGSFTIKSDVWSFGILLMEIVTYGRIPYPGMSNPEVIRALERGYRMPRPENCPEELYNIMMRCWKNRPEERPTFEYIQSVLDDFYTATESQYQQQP
UniProt P36897, sequence (whole entry, looked up): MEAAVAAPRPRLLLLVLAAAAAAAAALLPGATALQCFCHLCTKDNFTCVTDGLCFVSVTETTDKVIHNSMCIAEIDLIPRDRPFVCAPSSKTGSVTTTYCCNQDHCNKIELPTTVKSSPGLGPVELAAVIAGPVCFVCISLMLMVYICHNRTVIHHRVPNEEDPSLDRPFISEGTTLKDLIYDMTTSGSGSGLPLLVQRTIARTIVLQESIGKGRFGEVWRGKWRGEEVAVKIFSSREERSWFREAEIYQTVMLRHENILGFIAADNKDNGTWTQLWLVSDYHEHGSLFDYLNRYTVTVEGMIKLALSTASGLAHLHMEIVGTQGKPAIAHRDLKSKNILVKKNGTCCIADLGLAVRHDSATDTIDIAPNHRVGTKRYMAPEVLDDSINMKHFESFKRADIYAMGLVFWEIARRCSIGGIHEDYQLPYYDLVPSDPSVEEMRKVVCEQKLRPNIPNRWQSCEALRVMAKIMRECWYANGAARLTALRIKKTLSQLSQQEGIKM

Study 1
SMILES: O=C(O)[C@H]1[C@H](Cn2nnc3ccccc3c2=O)CC[C@@H]1C(=O)c1ccc(OCCC2CCOCC2)cc1
Technique: competition with immobilised ligand
Tested at: 1 µM
target | assay | remaining binding
MAP kinase-interacting serine/threonine-protein kinase 2 (MKNK2, Homo sapiens, UniProt Q9HBH9) | cell-free assay | 83%
SRSF protein kinase 2 (SRPK2, Homo sapiens, UniProt P78362) | cell-free assay | 100%
Serine/threonine-protein kinase Nek5 (NEK5, Homo sapiens, UniProt Q6P3R8) | cell-free assay | 97%
Serine/threonine-protein kinase TBK1 (TBK1, Homo sapiens, UniProt Q9UHD2) | cell-free assay | 94%
TGF-beta receptor type-1 (TGFBR1, Homo sapiens, UniProt P36897) | cell-free assay | 90%
Serine/threonine-protein kinase 36 (STK36, Homo sapiens, UniProt Q9NRP7) | cell-free assay | 100%
Receptor-type tyrosine-protein kinase FLT3 (FLT3, Homo sapiens, UniProt P36888, ITD) | cell-free assay | 83%
Tyrosine-protein kinase ABL1, phosphorylated (ABL1, Homo sapiens, UniProt P00519, Y253F) | cell-free assay | 100%
Ribosomal protein S6 kinase alpha-2, N-terminal kinase domain (RPS6KA2, Homo sapiens, UniProt Q15349) | cell-free assay | 90%
Cyclin-dependent kinase-like 2 (CDKL2, Homo sapiens, UniProt Q92772) | binding | 97%
Tyrosine-protein kinase HCK (HCK, Homo sapiens, UniProt P08631) | cell-free assay | 70%

Study 2
Structure (SMILES): CC(C)(C(=O)O)[C@H](NC(=O)Cc1cccc(I)c1)c1ccc2oc(=O)[nH]c2c1
Technique: Incucyte 3D growth
Tested at: 30 µM
Reading: higher = more growth
cell line | conditions | spheroid area
MEL-JUSO | 234.52 h | 1.54e+07 a.u. and 2.02e+07 a.u. and 2.9e+07 a.u. and 1.69e+07 a.u. and 1.83e+07 a.u. and 1.71e+07 a.u.
A375 | 180.52 h | 1.21e+08 a.u. and 1.45e+08 a.u. and 1.16e+08 a.u. and 1.41e+08 a.u. and 1.34e+08 a.u. and 1.33e+08 a.u.
NCI-H1437 | 48 h | 3e+07 a.u. and 2.66e+07 a.u. and 1.69e+07 a.u. and 1.82e+07 a.u. and 2.12e+07 a.u.
KP-4 | 72 h | 1.49e+07 a.u. and 1.4e+07 a.u. and 1.65e+07 a.u. and 1.46e+07 a.u. and 1.64e+07 a.u. and 1.86e+07 a.u.
A375 | 60.52 h | 3.63e+07 a.u. and 3.48e+07 a.u. and 4.3e+07 a.u. and 3.08e+07 a.u. and 3.51e+07 a.u. and 2.22e+07 a.u.
NCI-H1437 | 72 h | 2.35e+07 a.u. and 2.91e+07 a.u. and 2.79e+07 a.u. and 3.03e+07 a.u. and 2.47e+07 a.u.
PC-9 | 48 h | 4.07e+08 a.u. and 3.91e+08 a.u. and 4.28e+08 a.u. and 4.09e+08 a.u. and 4.01e+08 a.u. and 4.04e+08 a.u.
NCI-H358 | 276 h | 1.2e+07 a.u. and 1.22e+07 a.u. and 1.05e+07 a.u. and 1.19e+07 a.u. and 1.33e+07 a.u.
A375 | 414.52 h | 1.6e+08 a.u. and 1.83e+08 a.u. and 1.51e+08 a.u. and 1.71e+08 a.u. and 1.65e+08 a.u. and 1.8e+08 a.u.
IPC-298 | 6 h | 1.72e+07 a.u. and 1.64e+07 a.u. and 1.67e+07 a.u. and 1.46e+07 a.u. and 1.55e+07 a.u. and 1.81e+07 a.u.

Study 3
Species: mouse
Matrix: microsomes or S9
Tested at: 2 µM
Time: 0.5 h
SMILES | remaining compound [%]
C[C@H](Nc1ncnc2[nH]cnc12)c1cc2cccc(Cl)c2c(=O)n1-c1ccccc1 | 0.441
CNC(=O)c1cc2c(F)c(O)ccc2n1-c1cc(F)c(O)c(F)c1 | 73
Cc1sc2c(C3CCN(C(=O)C(C)NC4CCS(=O)(=O)C4)CC3)nc(C)n2c1C (stereo not shown) | 1.75
O=c1oc2ncn(-c3ccccc3)c2c2ccccc12 | 1.15
CCOC(=O)CNC(=O)N1Cc2c(sc3c2CCCC3)-n2cccc2C1C(C)C (stereo not shown) | < 1
Cc1ccc2oc(=O)c(/C=C(\O)CC(C)C)nc2c1 | 80.2
CCCN(c1nc2nc(C)c(Cl)c(C)n2n1)S(=O)(=O)c1ccccc1 | 1.37
COCCNC(=O)c1ccc(-n2ncc(C(=O)OC)c2N)cc1 | 66.8
Cc1cc(C)c2c(n1)nn1c(-n3ccnc3)cc(C)nc21 | 15.4
CCOC(=O)C(=Cc1cn(-c2ccccc2)nc1-c1ccc(OC)c(OC)c1)C(=O)OCC | 0.692
CCc1c(C(=O)NNc2oc(C(C)C)nc2C#N)cnn1C(C)(C)C | 0.623
CCOC(=O)c1c(C(F)(F)F)[nH]n2c(C(F)F)nnc12 | 97.8
COc1cc(C)ccc1OCCN1CC[C@H]2CNC[C@H]21 | 22.7
O=C(CNC(=O)Cc1ccccc1)NCC(=O)OCc1cccc(C(=O)c2ccccc2)c1 | 1.15
COc1cc(=O)n2c(c1C(=O)Nc1cccc3c1CCCC3)CCCC2 | 41.2
Cn1ncc2c(NCCO)nc(Nc3cccc(F)c3)nc21 | 2.04

Study 4
Target: Protein kinase C gamma type (PRKCG, Homo sapiens, UniProt P05129)
Effect on: enzyme activity
Mode: inhibitor
Tested at: 0.5 µM
Reference: control
SMILES | remaining activity
CCc1[nH]c(-c2ccc(OC)cc2)nc1-c1ccncc1 | 95.5%
O=C1NC(=O)C(c2c[nH]c3ccccc23)=C1c1c[nH]c2ccccc12 | 91.4%
CCCC(=O)Oc1ccc2[nH]c(C(=O)c3cc4ccccc4[nH]3)cc2c1 | 99%
Nc1nccc(-c2c(-c3ccc(F)cc3)ncn2C2CCNCC2)n1 | 87.8%
N#CC(=C(N)Sc1ccc(N)cc1)c1ccccc1C(F)(F)F | 99.5%
Oc1ccc(Nc2nc(-c3ccc(Cl)cc3)cs2)cc1 | 87.3%
Nc1ncnc2c1cnn2-c1ccccc1 | 103%
O=S(=O)(NCCNC/C=C/c1ccc(Br)cc1)c1cccc2cnccc12 | 83.8%
Nc1nc(Nc2ccc(S(N)(=O)=O)cc2)nn1C(=O)c1c(F)cccc1F | 81.3%
CSc1nc(-c2ccnc(N[C@@H](C)c3ccccc3)c2)c(-c2ccc(F)cc2)[nH]1 (racemic) | 101%
CC(C)(C)n1nc(Cc2cccc3ccccc23)c2c(N)ncnc21 | 101%
Cc1cncc2cccc(S(=O)(=O)N3CCCN(C(=O)CN)C[C@@H]3C)c12 | 101%
CC(=O)c1ccc(N2CCOCC2)cc1O | 98.7%
O=C1Cc2c([nH]c3ccc([N+](=O)[O-])cc23)-c2ccccc2N1 | 92.5%
CC#CC(=O)Nc1cc2c(Nc3ccc(F)c(Cl)c3)ncnc2cn1 | 97.2%
Cc1cc(Nc2nc(-c3ccccc3)nc3ccccc23)n[nH]1 | 98.6%
COc1ccc(S(=O)(=O)N(CCO)c2ccccc2CN(C)CC=Cc2ccc(Cl)cc2)cc1 | 95.1%
CC[n+]1c(/C=C/N(C)c2ccccc2)n(-c2ccccc2)c2ccc(-c3nc4ccccc4s3)cc21 | 99.4%
COc1cc(Nc2c(C#N)cnc3cc(OCCCN4CCN(C)CC4)c(OC)cc23)c(Cl)cc1Cl | 93.6%
NC(=O)c1ccc(N(C(N)=O)c2c(F)cccc2F)nc1-c1ccc(F)cc1F | 91.3%
Cc1ccc(NC2=CC(=O)c3sc(C)nc3C2=O)cc1 | 77%

A few entries again (study 4):
SMILES | remaining activity
Oc1ccc(Nc2nc(-c3ccc(Cl)cc3)cs2)cc1 | 87.3%
Nc1ncnc2c1cnn2-c1ccccc1 | 103%
O=S(=O)(NCCNC/C=C/c1ccc(Br)cc1)c1cccc2cnccc12 | 83.8%
Nc1nc(Nc2ccc(S(N)(=O)=O)cc2)nn1C(=O)c1c(F)cccc1F | 81.3%
CSc1nc(-c2ccnc(N[C@@H](C)c3ccccc3)c2)c(-c2ccc(F)cc2)[nH]1 (racemic) | 101%
